Experimental data pooled from the literature.
Each numbered part is a random draw from the data of one study; scales do not carry over between parts. Changes are numbered by the printed parent chain.

Block 1
Target: RING finger protein unkempt homolog, zinc fingers 1-6, GST-SBP tag (UNK, Homo sapiens, UniProt Q9C0B0, residues 30-357)
UniProt Q9C0B0, sequence (30-357, looked up): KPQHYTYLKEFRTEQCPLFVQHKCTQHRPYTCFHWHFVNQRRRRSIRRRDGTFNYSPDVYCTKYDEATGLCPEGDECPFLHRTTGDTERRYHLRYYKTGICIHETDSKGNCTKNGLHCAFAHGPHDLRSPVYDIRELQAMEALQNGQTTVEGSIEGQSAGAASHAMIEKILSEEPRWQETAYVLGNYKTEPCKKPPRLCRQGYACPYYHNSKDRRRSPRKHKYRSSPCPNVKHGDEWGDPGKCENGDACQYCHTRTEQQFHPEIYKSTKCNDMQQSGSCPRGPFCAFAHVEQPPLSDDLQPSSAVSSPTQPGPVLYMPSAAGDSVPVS
Method: RNA Bind-n-Seq
Molecule type: RNA
Matrix: in vitro
Concentration: not given
Setting: RNA with constant flanks, human-mouse chimeric sites, ends assumed
Reference: input RNA pool
Reading: higher = stronger binding
Strand	bound/input enrichment [ratio]
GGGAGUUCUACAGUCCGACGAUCUUACCCGAGAACGAGGAUGAGCUGGAGAGCACCAAUAGGCGCUACACCAAGAGGGACUGCAGCACUUUCCUCAGAACUAGUGAGACGGGCAUUGUGGACCAGGUCAUGGUCACUCUCAACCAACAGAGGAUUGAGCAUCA	0.144
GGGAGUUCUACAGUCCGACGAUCGAUAAGAAAAGCUUGUUGGAGACCCGCUUGCAUGUCACUGGCAGAGACCUGAGGUGUCAAAUAGCUGAAACUUUCGGAUUUCAAGAAAAUUACAUCAAGAUCGUAAUAAAUAAGAAGCAGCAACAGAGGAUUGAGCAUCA	0.378
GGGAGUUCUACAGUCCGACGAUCCCCCACAACCAUUUGCAGGUCUGGAACUGCACUCUCUUUUUUAAAAAACAUGUAUACAUUUUAGGGCUGUAGAUUUAUUUUCCUGGUUUUGUUUUUCAUUGCUGACUUUGAGCACAAGAACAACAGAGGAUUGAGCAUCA	2.07
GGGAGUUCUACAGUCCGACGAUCGGAUCUUUGGGACUGUUUUACUUAAUUGGUCAUUGAUAGCUUAACAAGCAUGGAGAUAAGAUUAGAAAUCUUGACAUCAACAGGUAUUAAGCAGAAAAAACCAUGGCCACGUGUCUCCUGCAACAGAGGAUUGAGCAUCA	0.194
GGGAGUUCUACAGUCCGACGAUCGAUCAUGAACCACCAUCCAGAAAUGAAGAUGAGACUACCAGACGAGCCAAAACAGCUGCGCUACAGAAAAGUAAACUUAACCUUGCAGAGUUCCUUAAUGAAGAUACAAGUUAAGAGAGCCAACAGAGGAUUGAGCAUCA	0.128
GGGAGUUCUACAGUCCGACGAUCAGCACAACCCCAGCAAAGCUAAGAAAUCCUUGUACAAGUGAACAAAACUGCACCAGCCCAUUUAGCUACAAAAAUGUGCUUAGUCUUACUAAUAAAGGAGAGUUUUUUAAUGAACUUGUUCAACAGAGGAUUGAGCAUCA	0.723
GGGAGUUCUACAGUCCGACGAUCGGUGGGGUGGUCAUUGCCGUUUGAGCUGCUGAUUUUCAUGAGUCGCCCAUUCAGAACUCGCAUAGGGUUGACAAUGUGGGGGGGUGGGGGAUCCAGCUUAUUCUUUUAUUUUCAAGUCCACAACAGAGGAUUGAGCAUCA	0.539
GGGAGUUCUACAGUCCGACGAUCCUAGCAGUCCAGCAGCUAGAAGGAGCCUUGAGACAAACACUCCACACACAGGGAAGGCGAUAACAUUGUACAUUGGUUUACAUUUUUUCCCCCUGUGUUUUCUAGGGGAGGUCAUAGUGCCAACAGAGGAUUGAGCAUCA	0.812
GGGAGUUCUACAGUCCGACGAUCUUUCUACUGCAGCAAACGAUGCUAAGAAUUAAGGAUCCUAAGAAGUCCCUGGAUUUUUAUACGAGGGUUCUUGGACUGACCCUCCUGCAGAAGCUUGAUUUUCCCAUUAUGAAGUUCUCGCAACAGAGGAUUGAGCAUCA	0.5
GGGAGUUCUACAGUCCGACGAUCAUGGUUGUGUCUCUUGAUUGGGGUCUACAAGAUGACUUUUCCUGGCACAUAUUCCAAAGCAAAGACUUUGUUGCCUGCUGCUUAUUGUCUAAUUUACAGGGAUAUUUAAUUUUGUCAGGUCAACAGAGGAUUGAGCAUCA	0.266
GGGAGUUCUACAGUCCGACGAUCCAGUCCCCGUGUCCCAGUGCAGGACGAUGUGAACAAAAACUCAAAGCGGACCCUCUAUUGUAGUUCUUUUUUUAAAUAAUGUGCUAUUAUUGUUUGUCUUUUUUUUUUUUUUUUUAAAGACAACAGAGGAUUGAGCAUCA	2.31

Block 2
Target: CCND3, cyclin fold, Cln2 fusion (human)
Method: yeast growth competition, sequencing
Matrix: yeast
Setting: weak parent motif
Reference: not given
Reading: higher = stronger binding
Parent: GMNC docking peptide (human); KNAKRNLSSEFAN; partner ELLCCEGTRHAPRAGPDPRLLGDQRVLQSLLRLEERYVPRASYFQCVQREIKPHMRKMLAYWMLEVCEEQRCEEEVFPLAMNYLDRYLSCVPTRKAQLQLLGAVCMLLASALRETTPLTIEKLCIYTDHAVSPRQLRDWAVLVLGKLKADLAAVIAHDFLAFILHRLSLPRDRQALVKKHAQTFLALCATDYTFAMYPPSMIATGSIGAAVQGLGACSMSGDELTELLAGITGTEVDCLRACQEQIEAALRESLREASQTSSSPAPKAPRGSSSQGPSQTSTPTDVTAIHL
Change	normalised enrichment score
R5G	0.367
K4P	0.318
L7S	0.29
L7W	-0.00193
N6A	0.169
N2D	0.125
N2L	0.165
S9K	-0.0615
A12D	-0.22
L7K	0.164
S9P	0.248
S8P	0.645
E10I	-0.102
S8H	0.284
E10L	-0.0421
E10S	0.108
A12M	-0.197
F11W	0.0672
L7I	0.332
F11Q	0.145
R5E	0.581
A3P	-0.692
R5I	0.313
R5V	-0.0744
A3M	0.143

Block 3
Target: PABPC1L2, full length, GST fusion (mouse, UniProt A0ABA7IW68)
Method: RNAcompete
Molecule type: RNA
Matrix: in vitro
Concentration: 20 nM
Setting: 7-mer, probes averaged, single round
Reference: mean of 7-mers
Reading: higher = stronger binding
Target sequence (chain): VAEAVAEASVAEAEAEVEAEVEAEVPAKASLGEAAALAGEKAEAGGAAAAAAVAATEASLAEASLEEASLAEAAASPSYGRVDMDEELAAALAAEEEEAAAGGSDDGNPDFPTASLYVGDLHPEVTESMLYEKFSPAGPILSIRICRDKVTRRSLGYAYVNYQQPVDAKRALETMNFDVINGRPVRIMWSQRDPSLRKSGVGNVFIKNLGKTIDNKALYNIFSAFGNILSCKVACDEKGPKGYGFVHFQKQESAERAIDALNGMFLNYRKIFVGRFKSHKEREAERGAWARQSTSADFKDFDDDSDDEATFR
Strand	7-mer Z-score
UACCUUG	-0.329
GCCGGCG	-0.349
UAAGAGU	-0.139
CAUUUAU	0.274
AAGCAAA	0.901
GCGCCGA	-0.175
UAAUGAA	0.137
GUUCCUA	-0.161
GCUGUUC	-0.36
CAUGUUG	-0.238
CCACCCG	-0.217
CGACCAU	-0.137
GUAAGAU	-0.128
GAAAUAC	0.929
AACGAUU	0.0315
CCUUCUC	-0.489
CCACAGA	-0.0953
AUGAUAA	0.376
GUAGAGA	0.0442
CCCGCAG	-0.251
ACGACAA	0.291
CAUAGGU	-0.079
UAUGUUC	-0.389
UAGACCG	-0.195
GGGAUUU	0.153

Block 4
Target: Fragile X messenger ribonucleoprotein 1, C-terminal low-complexity region (Fmr1, Mus musculus, UniProt P35922)
Method: RNA Bind-n-Seq
Molecule type: RNA
Matrix: in vitro
Concentration: 200 nM
Setting: whole 134-nt RNA, ends assumed
Together with: 150 mM LiCl
Reference: input library
Reading: higher = stronger binding
Library: 7-deaza-guanosine replaces G
Strand	log2 enrichment
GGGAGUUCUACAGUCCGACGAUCUGGCCCUGGUGGCAUGCGGGGAGGAAGAGGUGGCCUCAUGGAUCGUGGUGGUCCCGGUGGCAUGUUCAGAGGUGGCCGUGGUGGAGACAGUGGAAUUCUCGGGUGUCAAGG	-1.24
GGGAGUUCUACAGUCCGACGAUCUCCUGUGCUACACAUCGUAUGUACCGAAUCGUGUGUGUGUGUGUGUGUGUGUGUGUGUGAAAGUAUUAUGUUACGCCGUUCGGAUCUGCAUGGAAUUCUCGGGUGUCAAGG	-0.381
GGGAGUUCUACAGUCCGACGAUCUUAUCACCAGGACUGCCAUGUUCCCAGGGCUCCAGCCCCUGGAGAGGGAGAGGGCACAUCCUGGGUAUGCCGCCAGUGUGUCUUUGCGAUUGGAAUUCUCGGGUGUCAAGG	-1.07
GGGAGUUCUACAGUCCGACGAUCUAUUAAUUUGAUAUAUUUAUUAUGAUUUGUAGAGGACGUCGGUGAUGAAGGAGAAGAAGAAAAAGAAUUCAUUUCCUAUAACAUCAACAUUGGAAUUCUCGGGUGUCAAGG	-4.35
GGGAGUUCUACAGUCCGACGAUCAGGUCAUGGAUCAAAAAGAACAUAAAUUGAAUGGGAAGGUGAUUGAUCCUAAAAGGGCCAAAGCCAUGAAAACAAAAGAGCCGGUUAAAAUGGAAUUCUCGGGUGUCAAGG	-0.551
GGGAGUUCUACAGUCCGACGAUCUGGCCCUGGUGGCAUGCGGGGAGCAAGAGGUGGCCUCAUGGAUCGUGGUGGUCCCGGUGGAAUGUUCAGAGGUGGCCGUGGUGGAGACAGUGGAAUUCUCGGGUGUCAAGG	0.174
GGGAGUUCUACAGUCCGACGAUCCCUCAAGUCCUGUGCUACACAUCGUAUGUACCGAAUCGGUUGGGUUGGGUUGGAAAGUAUUAUGUUACGCCGUUCGGAUCUGCACUUCCAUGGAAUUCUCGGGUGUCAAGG	-0.351
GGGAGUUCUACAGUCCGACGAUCUCAAGUCCUGUGCUACACAUCGUAUGUACCGAAUCGGGUUUUUGGGAGGGAGGGAAAGUAUUAUGUUACGCCGUUCGGAUCUGCACUUCCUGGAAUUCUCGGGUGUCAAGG	-1.79
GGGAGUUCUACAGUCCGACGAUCUGGGAGGUGGAUUUUGUUUAUUUUUUUAGCUCAUUUCCAGGGGUGGGAAUUUUUUUUUAAUAUGUGUCAUGAAUAAAGUUGUUGUUGAAAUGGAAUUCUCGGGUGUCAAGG	0.285
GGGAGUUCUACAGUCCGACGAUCAAGUCCUGUGCUACACAUCGUAUGUACCGAAUCGGGGAGGGGAAAGGGGAAAGGGGAAAGUAUUAUGUUACGCCGUUCGGAUCUGCACUUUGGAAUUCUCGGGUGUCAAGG	0.928
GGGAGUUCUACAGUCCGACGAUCAGUCCUGUGCUACACAUCGUAUGUACCGAAUCGGGAAAAAAAGGGAGGGUUUUUGGGAAAGUAUUAUGUUACGCCGUUCGGAUCUGCACUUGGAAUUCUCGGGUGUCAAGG	-2.39

Block 5
Target: Histone acetyltransferase KAT6A, winged helix 2, GST fusion (KAT6A, Homo sapiens, UniProt Q92794, residues 85-181)
Method: protein binding microarray
Molecule type: double-stranded DNA, one strand shown
Matrix: in vitro
Concentration: not given
Setting: 8-mer, flanks averaged, mean of 2 arrays, mostly near background
Reference: not given
Reading: higher = stronger binding
Residues (chain): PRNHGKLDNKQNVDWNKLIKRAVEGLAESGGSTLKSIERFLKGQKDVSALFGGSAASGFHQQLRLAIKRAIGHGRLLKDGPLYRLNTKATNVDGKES
Strand	E-score
ACCCAGGC	0.283
AGAGGAAG	-0.0322
TCGACCGA	0.156
GAAAAGAA	-0.0247
AATGCCGG	0.144
CGCTTGTC	0.07
ACAAAACA	0.0864
GAACGCGC	0.192
TCATCGCA	0.118
ATCAAGTG	-0.128
CCTTGATC	0.159
CGAAGCGC	0.0456
CGTGAACA	0.0248
ATCCGGGA	-0.0216
TCTGCAGA	-0.0121
ACATAGGA	-0.24
GTCGTCCA	-0.175
GAGGCATA	0.0682
GCTAAAAC	-0.138
ATAGAGGA	-0.1
GGCGTGCA	0.176
AGAGGGCA	0.0394
GAATCGAA	0.0806
CATCGTTA	-0.243
GTGCCAAC	0.0591

For quick reference, copied from above (block 3):
Strand	7-mer Z-score
ACGACAA	0.291
CCUUCUC	-0.489
UACCUUG	-0.329
AAGCAAA	0.901
CCACAGA	-0.0953
CCCGCAG	-0.251
GCCGGCG	-0.349
CCACCCG	-0.217
GUUCCUA	-0.161
UAUGUUC	-0.389
UAAGAGU	-0.139
